Results gathered from unrelated publications.
Compare with care: the assays were run in different laboratories. “And” joins repeats or separate records; there may be more than shown.
Target: Mitogen-activated protein kinase kinase kinase 8 (MAP3K8, Homo sapiens, UniProt P41279)

CN1CCN(Cc2ccc(-c3ccc(CO[C@H]4CCC[C@@H]4NC(=O)c4cc(-c5cnn(C)c5)cnc4N)cc3)cc2)CC1
inhibition (enzyme activity, inhibitor; 0.1 µM): -3%

Nc1ncc(-c2cc(-c3cnn(CC(F)(F)F)c3)ncc2F)nc1C(=O)NC1CNCC(F)C1 (centres unmarked)
remaining activity (enzyme activity; 1 µM; baseline: DMSO control): 97.3%

NC(=O)[C@@H](O)C[C@H]1CCc2sc3ncnc(O[C@H]4CC[C@H](N5CCOCC5)CC4)c3c21
inhibition (enzyme activity, inhibitor; 10 µM): -4%

COCC12C(=O)NC3C4(C(OC)CC1O)C1CC5(O)C(OC)C(O)C(OC(C)=O)(C1C5OC(=O)c1ccccc1)C3(O)C(OC)C24 (centres unmarked)
remaining activity (kinase activity, inhibitor, ProQinase kinase profiling; 25 µM; baseline: control): 88% and 82%

NC(=O)C[C@H]1CCc2sc3ncnc(O[C@H]4CC[C@H](N5CCOCC5)CC4)c3c21
inhibition (enzyme activity, inhibitor; 10 µM): 6%

CCn1cc(C(=O)O)c(=O)c2c(N)c(F)c(NC3CCCCC3)cc21
inhibition (kinase activity; 0.1 µM, together with: ATP at Km): 0.1%

O=C(Cc1ccc(OCc2ccccc2)cc1)NC1(C(=O)O)CCN(C(=O)c2ccc(-c3cccc(Cl)c3)cc2)CC1
activity vs control (enzyme activity, inhibitor; 10 µM): 100%

C=CC(=O)N1Cc2nc(-c3cc(-c4cc(Cl)cnc4Cl)c(F)cc3F)n(-c3ccncn3)c2C1
inhibition (cell-free assay, inhibitor; 1 µM): -5.6%
